Experimental data of several laboratories.
Lines come from different studies, so protocols differ.
UniProt P37136, sequence (whole entry, looked up): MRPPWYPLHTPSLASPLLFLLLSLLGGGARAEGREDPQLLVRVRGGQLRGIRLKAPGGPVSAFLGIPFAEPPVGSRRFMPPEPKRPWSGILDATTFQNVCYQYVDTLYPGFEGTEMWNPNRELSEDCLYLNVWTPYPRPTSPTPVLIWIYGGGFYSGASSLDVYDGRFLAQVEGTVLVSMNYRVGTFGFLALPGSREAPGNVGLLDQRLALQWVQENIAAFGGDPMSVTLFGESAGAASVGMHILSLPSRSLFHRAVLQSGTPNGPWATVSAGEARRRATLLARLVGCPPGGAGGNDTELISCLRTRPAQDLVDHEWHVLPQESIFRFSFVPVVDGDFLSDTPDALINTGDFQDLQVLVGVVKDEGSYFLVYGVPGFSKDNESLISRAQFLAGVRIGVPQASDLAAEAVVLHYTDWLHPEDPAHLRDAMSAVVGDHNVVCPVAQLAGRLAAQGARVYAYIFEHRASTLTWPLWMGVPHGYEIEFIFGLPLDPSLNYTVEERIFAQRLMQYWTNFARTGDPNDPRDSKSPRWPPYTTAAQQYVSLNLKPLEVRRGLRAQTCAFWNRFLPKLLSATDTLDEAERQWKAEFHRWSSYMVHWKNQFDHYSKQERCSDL

Molecule | target or system | test | system | setting | how to read | endpoint | value
maraviroc |  |  | white CYP3A5 poor metabolizers, plasma | 300 mg twice daily |  | Cavg | 246 ng/mL
semaglutide |  | measured: action not applicable | human, safety analysis set | concentration not given, 32 weeks, run-in |  | participants with adverse events | 2.1%
deucravacitinib |  | multiple ascending dose | healthy human | oral, 12 mg once daily |  | subjects with headache | 33.3%
chicoric acid | IPEC-J2 monolayer |  |  | with: thapsigargin 10 µM | baseline: without inhibitor | Papp basolateral to apical | increased
phoxim-oxon | Acetylcholinesterase (Ache, Rattus norvegicus, UniProt P37136) | inhibitor | rat, postnatal day 12, rat skeletal muscle homogenate | 15 min, 37 °C |  | IC50 | 12 nM

Repeated from above:
Molecule | target or system | test | system | setting | how to read | endpoint | value
chicoric acid | IPEC-J2 monolayer |  |  | with: thapsigargin 10 µM | baseline: without inhibitor | Papp basolateral to apical | increased
